# Experimental data of several laboratories.
# Each line is one published result; not all experiments were run side by side. “And” joins repeats or separate records; there may be more than shown. ± marks the error that the study gave.
# Sequence of UniProt Q64663 (whole entry, unmodified, looked up): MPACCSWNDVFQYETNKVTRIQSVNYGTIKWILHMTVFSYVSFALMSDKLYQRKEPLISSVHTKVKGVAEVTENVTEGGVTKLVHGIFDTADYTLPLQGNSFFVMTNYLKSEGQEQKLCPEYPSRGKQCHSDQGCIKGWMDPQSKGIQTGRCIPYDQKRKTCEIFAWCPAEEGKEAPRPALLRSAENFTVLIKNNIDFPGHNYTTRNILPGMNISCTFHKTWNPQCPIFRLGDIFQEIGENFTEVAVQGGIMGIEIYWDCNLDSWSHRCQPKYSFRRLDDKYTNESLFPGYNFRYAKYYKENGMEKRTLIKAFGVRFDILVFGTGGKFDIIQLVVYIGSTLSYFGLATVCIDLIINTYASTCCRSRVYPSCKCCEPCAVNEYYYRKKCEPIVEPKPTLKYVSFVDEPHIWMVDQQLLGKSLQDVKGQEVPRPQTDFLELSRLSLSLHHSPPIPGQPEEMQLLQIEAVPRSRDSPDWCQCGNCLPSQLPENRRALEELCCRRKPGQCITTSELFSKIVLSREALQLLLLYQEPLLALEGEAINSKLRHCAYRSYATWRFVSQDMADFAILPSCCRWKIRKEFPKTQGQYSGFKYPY
# Sequence of UniProt P48067 (whole entry, looked up): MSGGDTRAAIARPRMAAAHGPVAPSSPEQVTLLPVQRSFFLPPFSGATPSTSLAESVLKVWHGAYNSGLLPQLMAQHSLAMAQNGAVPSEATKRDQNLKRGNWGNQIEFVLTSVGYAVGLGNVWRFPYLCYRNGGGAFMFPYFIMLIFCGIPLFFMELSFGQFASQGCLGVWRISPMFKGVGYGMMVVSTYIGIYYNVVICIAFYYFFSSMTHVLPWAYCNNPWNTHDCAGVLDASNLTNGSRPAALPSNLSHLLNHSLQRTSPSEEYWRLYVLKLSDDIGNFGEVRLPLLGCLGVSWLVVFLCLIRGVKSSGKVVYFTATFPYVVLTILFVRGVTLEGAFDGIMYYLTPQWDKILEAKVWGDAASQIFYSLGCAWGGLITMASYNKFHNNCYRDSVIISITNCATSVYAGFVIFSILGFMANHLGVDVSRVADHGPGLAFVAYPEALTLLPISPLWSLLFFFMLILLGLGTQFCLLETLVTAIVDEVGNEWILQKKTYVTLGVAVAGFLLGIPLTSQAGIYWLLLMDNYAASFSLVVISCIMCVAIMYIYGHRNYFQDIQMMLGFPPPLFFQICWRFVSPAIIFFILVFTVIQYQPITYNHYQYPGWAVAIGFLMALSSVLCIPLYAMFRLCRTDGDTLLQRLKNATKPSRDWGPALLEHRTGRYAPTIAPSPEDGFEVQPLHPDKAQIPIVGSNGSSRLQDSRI
Molecule,tested on,assay,system,setting,scale,measurement,value
SEC11A,,co-immunoprecipitation,human RBC cytosol,"unit not given, with: Band 3 peptide 1-56 bait",baseline: negative control,co-IP enrichment,0.65
ACEQNPIYWARYADWLFTTPLLLLDLALLVDADEGT,,ex vivo fluorescence imaging,"peptide, BALB/c mice, 4T1 tumour-bearing, muscle","intravenous, 5 nmol, 24 h post-injection",higher = more uptake,mean fluorescence intensity,249 ± 23.2 a.u.
GSGAGHETIV,human MAGI1-2/6 PDZ construct (MBP fusion),automated holdup,"peptide, crude extract","concentration not given, uncorrected, unit not given","baseline: biotin control resin, higher = stronger binding",binding intensity,0.252
colistin,Enterobacter cloacae,,clinical isolate RKI 287/13,,,MIC,> 64 µg/mL
ALLQWVTQV,Jurkat T cells expressing 1G4 TCR,"NFAT-eGFP reporter, fluorescence microscopy",peptide,"concentration not given, HLA-A*02:01 NY-ESO system",,reporter activation,26.5%
human delta-aminolevulinic acid dehydratase,,co-immunoprecipitation,human plasma,"unit not given, with: Band 3 peptide 1-56 bait",baseline: negative control,co-IP enrichment,0
BzATP,"P2X purinoceptor 7 (P2rx7, Rattus norvegicus, UniProt Q64663, I214A/Q143A/R125A)","ion current, agonist, two-electrode voltage clamp",Xenopus oocytes,300 µM,,normalized current,0.618 and 0.674 and 0.569
Peginesatide,UT7/EPO,"microarray, measured: THBS1 mRNA (probe set 235086_at)",,"20 nM, 90 min",baseline: vehicle,mRNA level,2.6 fold
NPDALPETLV,human MAGI1-2/6 PDZ construct (MBP fusion),surface plasmon resonance,peptide,concentration not given,higher = stronger binding,normalised SPR binding response,23.7 normalised RU
GLAQWMARA,Jurkat T cells expressing 1G4 TCR,"NFAT-eGFP reporter, flow cytometry",peptide,"concentration not given, HLA-A*02:01 NY-ESO system",,reporter activation,0.24%
caspofungin,,,"adult ICU patients, mITT, serum","dose not given, Follow-up",,potassium,4.1 mmol/L
"DNA 1 CACTGGCCGTCTTACGGTCGCTCTGCTCGACG / DNA 2 CGACCGTAAGACGGCCAGTG (dsDNA; 20 bp, 3' 12 nt overhang)","RECQL 63-592 K325A (Homo sapiens, UniProt P46063)",fluorescence anisotropy,double-stranded DNA,with: Mg2+ 3 mM,,Kd,86.7 ± 32.8 nM
ALQQWVTQV,Jurkat T cells expressing 1G4 TCR,"NFAT-eGFP reporter, flow cytometry",peptide,"concentration not given, HLA-A*02:01 NY-ESO system",,reporter activation,78%
triosephosphate isomerase,,co-immunoprecipitation,human RBC membrane,"DMTMM crosslinker, unit not given, with: Band 3 peptide 1-56 bait",baseline: negative control,co-IP enrichment,0
ALMHWITQV,Jurkat T cells expressing 1G4 TCR,"NFAT-eGFP reporter, flow cytometry",peptide,"concentration not given, HLA-A*02:01 NY-ESO system",,reporter activation,2.07%
insulin degludec,,,human,"subcutaneous, 0.4 IU/kg, 3 FC level, single dose, reference formulation",,terminal half-life,16.8 ± 4.2 h
TLLEWLTKV,Jurkat T cells expressing 1G4 TCR,"NFAT-eGFP reporter, flow cytometry",peptide,"concentration not given, HLA-A*02:01 NY-ESO system",,reporter activation,0.18%
PMESGICTIV,human MAGI1-2/6 PDZ construct (MBP fusion),automated holdup,"peptide, purified PDZ protein","concentration not given, unit not given","baseline: biotin control resin, higher = stronger binding",binding intensity,-0.00356
ACEEQNPWARYLEWLFPTETLLLEL,,ex vivo fluorescence imaging,"peptide, BALB/c mice, 4T1 tumour-bearing, liver","intravenous, 5 nmol, 2 h post-injection",higher = more uptake,mean fluorescence intensity,806 ± 112 a.u.
"FNA / CGLSGLGVA-NH2 ([18F]FNA-labelled, C-amide)",,ex vivo gamma counting,"peptide, healthy mouse, urine",60 min post injection,,tissue uptake,538 %ID/g
GSGAGSETKM,human SCRIB PDZ3-4 tandem (MBP fusion),surface plasmon resonance,peptide,concentration not given,higher = stronger binding,normalised SPR binding response,15 normalised RU
ALLQWVAQV,Jurkat T cells expressing 1G4 TCR,"NFAT-eGFP reporter, flow cytometry",peptide,"concentration not given, HLA-A*02:01 NY-ESO system",,reporter activation,15.9%
MTVCNASQRQAHAQATAVSL,H358,phage binding,peptide,,baseline: targeting over control phage,selectivity ratio,0.9 ± 0.29
11-deoxycorticosterone,CYP11B2 (human),"substrate binding, stopped-flow global kinetic fitting",purified enzyme,"3-state conformational selection model, with: 10-fold excess adrenodoxin",,rate constant k1,0.606 ± 0.0441 s⁻¹
SVWLRKETRV,human MAGI1-3/6 PDZ construct (MBP fusion),automated holdup,"peptide, crude extract","concentration not given, uncorrected, unit not given","baseline: biotin control resin, higher = stronger binding",binding intensity,0.404
methyl-β-cyclodextrin,"Sodium- and chloride-dependent glycine transporter 1 (SLC6A9, Homo sapiens, UniProt P48067)","transport activity, [3H]glycine uptake",,"2.5 mg/mL, 1 min, with: glycine 900 µM",higher = more transport,glycine uptake rate,78.4 a.u. and 74.7 a.u. and 79.5 a.u. and 67.1 a.u. and 81.1 a.u.
epoetin alfa,UT7/EPO,"RT-qPCR, measured: SOCS1",,"concentration not given, 90 min, normalized to HPRT1",baseline: vehicle,mRNA level,5.5 fold
SEKHFRETEV,human SCRIB PDZ3-4 tandem (MBP fusion),surface plasmon resonance,peptide,concentration not given,higher = stronger binding,normalised SPR binding response,232 normalised RU

# Repeated from above:
Molecule,tested on,assay,system,setting,scale,measurement,value
NPDALPETLV,human MAGI1-2/6 PDZ construct (MBP fusion),surface plasmon resonance,peptide,concentration not given,higher = stronger binding,normalised SPR binding response,23.7 normalised RU
GLAQWMARA,Jurkat T cells expressing 1G4 TCR,"NFAT-eGFP reporter, flow cytometry",peptide,"concentration not given, HLA-A*02:01 NY-ESO system",,reporter activation,0.24%
caspofungin,,,"adult ICU patients, mITT, serum","dose not given, Follow-up",,potassium,4.1 mmol/L
"DNA 1 CACTGGCCGTCTTACGGTCGCTCTGCTCGACG / DNA 2 CGACCGTAAGACGGCCAGTG (dsDNA; 20 bp, 3' 12 nt overhang)","RECQL 63-592 K325A (Homo sapiens, UniProt P46063)",fluorescence anisotropy,double-stranded DNA,with: Mg2+ 3 mM,,Kd,86.7 ± 32.8 nM
ALQQWVTQV,Jurkat T cells expressing 1G4 TCR,"NFAT-eGFP reporter, flow cytometry",peptide,"concentration not given, HLA-A*02:01 NY-ESO system",,reporter activation,78%
